Assay results gathered from unrelated publications.
Every numbered part comes from another study and shows a few of its results, in no order.

Sample 1
Target: Interferon regulatory factor 7, full length, phosphomimetic (IRF7, Homo sapiens, UniProt Q92985, residues 1-503, S471D/S472D/S475D/S476D/S477D/S483D/S484D/S487D)
Sequence of UniProt Q92985 (whole entry, unmodified, looked up): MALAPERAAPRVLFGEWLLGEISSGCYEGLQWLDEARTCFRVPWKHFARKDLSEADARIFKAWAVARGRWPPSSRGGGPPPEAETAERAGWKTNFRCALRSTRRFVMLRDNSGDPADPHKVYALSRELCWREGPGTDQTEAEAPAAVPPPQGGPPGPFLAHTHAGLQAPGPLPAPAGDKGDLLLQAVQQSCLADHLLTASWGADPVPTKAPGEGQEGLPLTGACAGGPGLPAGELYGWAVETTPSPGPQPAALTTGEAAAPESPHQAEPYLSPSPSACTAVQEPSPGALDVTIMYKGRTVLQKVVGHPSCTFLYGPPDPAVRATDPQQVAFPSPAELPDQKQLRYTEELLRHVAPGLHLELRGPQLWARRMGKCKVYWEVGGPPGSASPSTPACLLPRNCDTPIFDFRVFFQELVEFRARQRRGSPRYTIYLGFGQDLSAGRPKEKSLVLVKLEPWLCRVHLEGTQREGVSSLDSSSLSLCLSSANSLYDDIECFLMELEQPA
Method: protein-binding microarray
Molecule type: double-stranded DNA, one strand shown
Matrix: in vitro
Tested at: 2200 nM top
Setting: 60-bp whole probe
Added: salmon DNA 0.4 mg/ml
Baseline: random background probes
Direction: higher = stronger binding
All sequences stand within: GCCTAGCAC … GTCTTGATTCGCTTGACGCTGCTG
Under “fitted relative affinity”, `GACGGACTGCTTTTCTTGACGTGCTAG` is recorded as 0.462 z-score.
`TTAGATGTCAGTATCGATTAGTGCTAG` — result for “fitted relative affinity”: 0.541 z-score.
For `TTAGGTATCGGGTATCGGTTTGTGCTA`, “fitted relative affinity” read 1.62 z-score.
For `GACGGTCTCCTTGTCCTGACGTGCTAG`, “fitted relative affinity” read 0.864 z-score.
`GACGGTTTCGACTATCGTGACGTGCTA`: “fitted relative affinity” 3.26 z-score.

Sample 2
Target: Sal-like protein 4, full length isoform B (SALL4, Homo sapiens, UniProt Q9UJQ4-2, residues 1-616)
Method: universal PBM
Molecule type: double-stranded DNA, one strand shown
Matrix: in vitro
Tested at: not given
Setting: 8-mer, flanks averaged, mean of replicates
Direction: higher = stronger binding
Residues (chain): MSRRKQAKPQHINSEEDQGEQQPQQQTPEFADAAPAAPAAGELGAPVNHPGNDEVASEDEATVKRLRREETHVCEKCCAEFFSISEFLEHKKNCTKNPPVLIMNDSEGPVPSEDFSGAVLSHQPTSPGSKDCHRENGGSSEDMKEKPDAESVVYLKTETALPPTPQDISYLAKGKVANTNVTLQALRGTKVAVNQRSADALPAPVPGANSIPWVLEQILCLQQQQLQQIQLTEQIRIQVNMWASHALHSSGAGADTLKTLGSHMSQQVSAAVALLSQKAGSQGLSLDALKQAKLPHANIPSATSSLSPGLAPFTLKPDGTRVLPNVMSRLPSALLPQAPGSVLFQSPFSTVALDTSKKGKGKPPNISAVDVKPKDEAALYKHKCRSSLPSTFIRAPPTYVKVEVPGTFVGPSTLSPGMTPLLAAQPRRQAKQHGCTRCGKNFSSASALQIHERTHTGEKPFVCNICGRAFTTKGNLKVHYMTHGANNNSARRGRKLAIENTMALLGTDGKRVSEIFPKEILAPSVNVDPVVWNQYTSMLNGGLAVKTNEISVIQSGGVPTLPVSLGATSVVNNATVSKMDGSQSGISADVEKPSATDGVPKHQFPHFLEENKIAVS
For `AACAGCCT`, the E-score was -0.227.
With `TCCGCCGA` the E-score was -0.215.
With `AAATGGGC` the E-score was -0.0833.
`ACTTCCAA` gave an E-score of 0.0503.

Sample 3
Target: Transcription factor Sp1 (SP1, Homo sapiens, UniProt P08047, residues 1-785, full length assumed)
Sequence of UniProt P08047 (whole entry, looked up): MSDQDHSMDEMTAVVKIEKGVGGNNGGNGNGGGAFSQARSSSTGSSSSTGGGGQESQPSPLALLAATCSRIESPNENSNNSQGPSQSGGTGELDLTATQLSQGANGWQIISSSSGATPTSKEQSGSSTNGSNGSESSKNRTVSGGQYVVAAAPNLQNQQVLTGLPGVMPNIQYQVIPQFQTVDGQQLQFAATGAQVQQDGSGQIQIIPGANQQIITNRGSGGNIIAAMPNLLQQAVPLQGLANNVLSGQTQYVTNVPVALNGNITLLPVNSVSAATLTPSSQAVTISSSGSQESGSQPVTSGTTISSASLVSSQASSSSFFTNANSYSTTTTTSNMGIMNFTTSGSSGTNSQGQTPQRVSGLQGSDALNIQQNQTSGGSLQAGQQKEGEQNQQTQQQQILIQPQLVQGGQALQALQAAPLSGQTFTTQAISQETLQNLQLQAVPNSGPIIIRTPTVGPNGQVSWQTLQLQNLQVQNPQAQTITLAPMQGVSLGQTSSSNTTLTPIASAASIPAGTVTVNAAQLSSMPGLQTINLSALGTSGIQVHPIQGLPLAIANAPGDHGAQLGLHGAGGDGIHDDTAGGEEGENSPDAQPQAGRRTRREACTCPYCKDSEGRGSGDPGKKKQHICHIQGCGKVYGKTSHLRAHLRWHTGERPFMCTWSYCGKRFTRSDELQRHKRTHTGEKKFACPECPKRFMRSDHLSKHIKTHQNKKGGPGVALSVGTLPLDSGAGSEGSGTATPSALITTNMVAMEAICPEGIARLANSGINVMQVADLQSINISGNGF
Method: protein-binding microarray
Molecule type: double-stranded DNA, one strand shown
Matrix: in vitro
Tested at: not given
Setting: k-mer, scored over probes, only values ≥0.25
Direction: higher = stronger binding
`CCCCAAGC` gave an E-score of 0.263.
For `CCCTTCCC`, the E-score was 0.309.
For `CACACCCA`, the E-score was 0.386.
With `ATAATTAT` the E-score was 0.289.
With `ATATCATA` the E-score was 0.264.

Mixed results
With `PhoQ, residues 284 288 289 292 302 303 SNSSNI` the fold induction was 3.32 (PhoP, residues 12 14 15 18 19 AWHSL (Escherichia coli, UniProt P23836); Sort-seq, measured: YFP reporter; E. coli; PhoQ-PhoP variant library, added: 10 µM Mg2+; baseline: high Mg2+ state, higher = stronger signaling).
